Measured values of several laboratories.
Parts stem from different laboratories: compare values within a part only.

Series 1
Target: RING finger protein unkempt homolog, zinc fingers 1-6, GST-SBP tag (UNK, Homo sapiens, UniProt Q9C0B0, residues 30-357)
Technique: RNA Bind-n-Seq
Molecule type: RNA
Matrix: in vitro
Tested at: not given
Notes: RNA with constant flanks, ends assumed
Relative to: input RNA pool
Direction: higher = stronger binding
Construct (chain): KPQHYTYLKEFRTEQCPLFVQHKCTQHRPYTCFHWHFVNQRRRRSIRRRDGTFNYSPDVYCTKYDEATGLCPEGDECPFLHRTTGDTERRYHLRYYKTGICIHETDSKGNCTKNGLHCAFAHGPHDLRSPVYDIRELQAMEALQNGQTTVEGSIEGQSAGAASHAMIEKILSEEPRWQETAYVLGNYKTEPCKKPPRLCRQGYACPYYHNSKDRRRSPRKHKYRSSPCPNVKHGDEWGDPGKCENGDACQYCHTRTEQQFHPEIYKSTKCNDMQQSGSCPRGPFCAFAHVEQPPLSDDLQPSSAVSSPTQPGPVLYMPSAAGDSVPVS
Strand	bound/input enrichment
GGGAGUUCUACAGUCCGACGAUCUAAACAAUCUUUUCUUUUUUUGUGGUUGUGUACUCAUUAUUGCUUGUUCGUCUUUUGCAAUUCCGAUAAAUGAUAUAACAUUAAACUCAAGGUGGUUGAGUUGCAGUAGGGAGUCGGAAGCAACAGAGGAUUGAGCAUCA	0.182 ratio
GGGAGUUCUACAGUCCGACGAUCUGCGUUUUGUGUAGAGAAUAAGGAACGUGGAUCUUUUUAUUUUGCAAUCCUGGGCCAGCCCGAUACCGGGAGCUAAUUGACCUUUUAACCUUUUCAGUGGCCACCUUUUGGUUAUCAAUGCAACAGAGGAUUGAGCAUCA	0.197 ratio
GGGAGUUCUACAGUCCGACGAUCAUAGAGGCAGCACCCGAGUCCCAGAUGAUGCCAGCAAGCGUCUUAACUGGGAACGUUAUCACCGAAACAAAGUUUUUUGACGACGAUCUUCUUGUAAGCACAUCCAGAGUGAGACUUUUCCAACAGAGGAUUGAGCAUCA	0.347 ratio
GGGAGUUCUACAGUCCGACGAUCCCCAACUCCUCUUCAGGACUCACUCCUCUCAGCACCACCGCGCCGAGCAUGUUCUCUGCUGACUUUCCCGACCCACAGGACCUACCGCUGCCAUGGGACUAACGUCACAGAUUUCUUUUCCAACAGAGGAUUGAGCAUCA	0.273 ratio
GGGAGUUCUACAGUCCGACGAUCGCUGGAUGAUACCAUAAUGUAUCAAGGAGCGUCCAUGGAUACAAGAUAAGAUGUGUACCUCCGCCGAAUACAGAGCUUUGGUAAUUACAUGAAUAAAAUUAAGAAAAUAGCCAUAUACAACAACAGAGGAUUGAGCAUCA	2.65 ratio
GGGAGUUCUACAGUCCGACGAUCGAUUUUAAUUGGCAGGGGAUAAUGGUAGCUUUCAAAUCAUUGGAAGGGGAAAAGGAUGUCUCCGGAUUAUUUUCUUUCUUGUAGUAGUUGAGACAGAGCUCUUAUUUACUGUAAUGCUAACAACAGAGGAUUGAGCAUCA	0.368 ratio
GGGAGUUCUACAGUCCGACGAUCAAACUGCAUUCCAGCGCCAGUCCCAGUGCUCAGCAGUACGAUGCUUCCAGUGCAGUACUUUCCGACAACCUCCCUGGAGUCCGGUGGCUCACACUUCCACUGGAAAUCAAGAUGGAAUUACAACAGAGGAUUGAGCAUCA	0.0958 ratio
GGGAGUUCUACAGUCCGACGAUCGGCUAUCUGGUAUCUGUAGAUGGCUACAUGAACAUGCAGCUUGCAAAUACAGAAGAAUACACCGAUGGAGCUUUGUCUGGACAUCUGGGUGAAGUUUUAAUAAGGUGUAAUAAUGUCCUUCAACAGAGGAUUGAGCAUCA	0.187 ratio

Series 2
Target: Histone acetyltransferase KAT6A, both winged helices, GST fusion (KAT6A, Homo sapiens, UniProt Q92794, residues 1-181)
Technique: protein binding microarray
Molecule type: double-stranded DNA, one strand shown
Matrix: in vitro
Tested at: not given
Notes: 8-mer, flanks averaged, mean of 2 arrays, mostly near background
Relative to: not given
Direction: higher = stronger binding
Target sequence (chain): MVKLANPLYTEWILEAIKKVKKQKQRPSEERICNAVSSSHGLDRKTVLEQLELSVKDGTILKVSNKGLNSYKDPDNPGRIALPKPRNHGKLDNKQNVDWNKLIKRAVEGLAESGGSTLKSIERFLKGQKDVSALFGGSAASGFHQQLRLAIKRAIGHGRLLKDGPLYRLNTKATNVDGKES
Strand	E-score
CGCAGAAC	0.248
ATACTCTC	-0.158
ACCAGCTC	-0.16
AGCAGAAC	-0.0908
CTTGCTAC	-0.138
GCCCGCTA	0.272
CACACGAG	-0.0547
ATTCGGTA	0.12
ACATGTAT	0.0692
GGCCGGCA	0.238
ACATTCCT	-0.228
AGTCTAGG	-0.0928
GCCTAGCC	0.0283
CAGCACCC	-0.0532
ATTAGGAA	-0.0892
CTTCGAGA	-0.0931
ACCTAAGT	-0.13
CTGGTAAC	-0.0105
ACGGAACT	0.23
CTAAGCCC	0.0336
CTCGACCC	-0.0398
GAAATCTA	-0.0414
GACTCACC	-0.0911
GATCGCCA	-0.0585

Series 3
Target: RNA binding protein fox-1 homolog 2, RRM domain, GST-SBP tag (RBFOX2, Homo sapiens, UniProt O43251-10, residues 100-194)
Technique: RNA Bind-n-Seq
Molecule type: RNA
Matrix: in vitro
Tested at: 365 nM
Notes: natural RNA segment, single round, ends assumed
Relative to: no-protein control
Direction: higher = stronger binding
Construct (chain): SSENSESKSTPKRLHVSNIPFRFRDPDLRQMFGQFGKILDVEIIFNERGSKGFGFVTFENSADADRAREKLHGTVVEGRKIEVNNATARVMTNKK
Strand	RBNS enrichment (R)
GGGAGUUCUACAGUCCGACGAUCCUAUUUCAGUGCUGUAGCUGUUAGUUUUAAGUGAGUGCUAAAGUUCUUUUAAAAGUACACAGAAUUUCCAUUCCUUAUAAAGGUGGCAAAAUUGGUUUGUCAUUUACCUCUGGAAUUCUCGGGUGCCAA	0.739
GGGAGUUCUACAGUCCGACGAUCUUAAGCGGGCUCCUGACAAUGAGAUGUGAACCUAGAGCUUUCCUAGUGAUGCUGGCUCUGCAGUUCCCUCUUGCCCAUCCCCGAGUGGGGACAAUUUCCCCAUCCCCAAGUGGAAUUCUCGGGUGCCAA	0.282
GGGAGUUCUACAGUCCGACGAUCAGCGCCGGGUAUGCUGCCUCUCAGUGUGUGGUGCCUAGCCUCCAGGUGGGGGCUCCUGCCCUCCUCCAACAACCCAGGACACCCACGCCUCACCCCUCGGUGCCUGGGCCUGGAAUUCUCGGGUGCCAA	0.288
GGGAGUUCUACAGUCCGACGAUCAGGUCAACCUCACACUGAUAUGCUCCUCGACUAGAGAGGUCUCCAAGCCCAGAACAGAGACUUGAACACCAUGUCCUUAACCAAAGUCAGCUCUUCAGAGUGUAAAUGAGUGGAAUUCUCGGGUGCCAA	0.344
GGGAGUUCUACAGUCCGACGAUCACACCAUGCAGAACCAGAGCAGCCAGCUCUACGCAGCACUGCCUGAGAGGCUCUACAUAAUCCAGGAGGGCAGGAUCCUCUACAAGGGUAAAUCUGGCCCUUGGAACUACUGGAAUUCUCGGGUGCCAA	0.227
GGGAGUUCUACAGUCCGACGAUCUAUUUUGAAAGAUUUAUAUAUGAUGAAUUCUGGAUAUAUGACCAAUAAAACUGAUGAAGCAAAACCUGAGCAGUUGAUUUUGUUCACAUCAGCUUCUCCUGCCACAUGCAUGGAAUUCUCGGGUGCCAA	2.57
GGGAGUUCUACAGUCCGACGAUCAGAACUAUACUAUUUUUCCUAUGGGACAAUGGACUUUCAGGACCUCACUUCAUUUUCAGAGUUAAUGGGAUCCAUGGUGCAAACUCCAUUAGCAGUUUUAUGCUGGCGAUUGGAAUUCUCGGGUGCCAA	0.433
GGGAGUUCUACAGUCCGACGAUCUUUGUAAAGUGGAUGGACAUGAUGGAAUUCAGUUGUCUCACCCUGAUAGCCUGGGUGUUGAUAUUCACUUUACCCGCACUCAGACACAGGCGACCUUGAAGCAGUUCUCGUGGAAUUCUCGGGUGCCAA	0.223

Series 4
Target: Interferon regulatory factor 5, full length, phosphomimetic (IRF5, Homo sapiens, UniProt Q13568-2, residues 1-514, S451D/S453D/S456D/S462D)
Technique: protein-binding microarray
Molecule type: double-stranded DNA, one strand shown
Matrix: in vitro
Tested at: 940 nM top
Notes: 60-bp whole probe
Added: salmon DNA 0.4 mg/ml
Relative to: random background probes
Direction: higher = stronger binding
Constant ends, left off below: GCCTAGCAC … GTCTTGATTCGCTTGACGCTGCTG
Strand	fitted relative affinity
GACGGACTGGGGTTTCGGTACGTGCTA	4.94 z-score
GACGGTATCCTTTGCCTGACGTGCTAG	0.103 z-score
TCATTTCTAAATTCCCTACTGTGCTAG	1.4 z-score
TTAGGACAGGGTTTCGGTTAGTGCTAG	5.25 z-score
GACGGTATCCACTATCGGGACGTGCTA	0.578 z-score
TTAGCTCTCAGTATCGATTAGTGCTAG	5.45 z-score
TTAGGACTGGGACTGGGTAAGTGCTAG	-0.548 z-score
GACGAACTCGGGACTGGAGACGTGCTA	-0.496 z-score
GACGGTCTCGGACTGGGGAGGTGCTAG	0.923 z-score
TTAGGTATCGGCCTGGGTTAGTGCTAG	5.65 z-score
TCAAAGATTGCCGTTTCCACTGTGCTA	0.102 z-score
GACGGTCTCGGTTCCGGGACGTGCTAG	4.02 z-score
GACGGGTTCGACTTTCGGGACGTGCTA	0.941 z-score
GGCGATATCAGTATCGAGACGTGCTAG	2.66 z-score
GCCATTGTGGATCTTGCAGAGTGCTAG	-0.42 z-score
GACGTACTGGGTCTCGGGACGTGCTAG	-0.286 z-score
TCATTTCTCCTTTCGGAACTGTGCTAG	1.39 z-score
TTAGGTTTCGGGTACCGGTTAGTGCTA	10.6 z-score
TCCTGTTTGATAATTTTTTTGTGCTAG	1.11 z-score

Repeated from above (series 1):
Strand	bound/input enrichment
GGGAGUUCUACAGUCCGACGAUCGGCUAUCUGGUAUCUGUAGAUGGCUACAUGAACAUGCAGCUUGCAAAUACAGAAGAAUACACCGAUGGAGCUUUGUCUGGACAUCUGGGUGAAGUUUUAAUAAGGUGUAAUAAUGUCCUUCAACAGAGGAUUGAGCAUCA	0.187 ratio
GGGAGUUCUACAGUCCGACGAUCUGCGUUUUGUGUAGAGAAUAAGGAACGUGGAUCUUUUUAUUUUGCAAUCCUGGGCCAGCCCGAUACCGGGAGCUAAUUGACCUUUUAACCUUUUCAGUGGCCACCUUUUGGUUAUCAAUGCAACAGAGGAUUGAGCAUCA	0.197 ratio
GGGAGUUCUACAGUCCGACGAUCCCCAACUCCUCUUCAGGACUCACUCCUCUCAGCACCACCGCGCCGAGCAUGUUCUCUGCUGACUUUCCCGACCCACAGGACCUACCGCUGCCAUGGGACUAACGUCACAGAUUUCUUUUCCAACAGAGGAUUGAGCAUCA	0.273 ratio
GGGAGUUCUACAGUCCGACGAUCUAAACAAUCUUUUCUUUUUUUGUGGUUGUGUACUCAUUAUUGCUUGUUCGUCUUUUGCAAUUCCGAUAAAUGAUAUAACAUUAAACUCAAGGUGGUUGAGUUGCAGUAGGGAGUCGGAAGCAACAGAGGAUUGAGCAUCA	0.182 ratio
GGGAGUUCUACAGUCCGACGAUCAAACUGCAUUCCAGCGCCAGUCCCAGUGCUCAGCAGUACGAUGCUUCCAGUGCAGUACUUUCCGACAACCUCCCUGGAGUCCGGUGGCUCACACUUCCACUGGAAAUCAAGAUGGAAUUACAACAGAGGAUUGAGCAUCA	0.0958 ratio
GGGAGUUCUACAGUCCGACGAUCGCUGGAUGAUACCAUAAUGUAUCAAGGAGCGUCCAUGGAUACAAGAUAAGAUGUGUACCUCCGCCGAAUACAGAGCUUUGGUAAUUACAUGAAUAAAAUUAAGAAAAUAGCCAUAUACAACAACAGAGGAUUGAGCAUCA	2.65 ratio
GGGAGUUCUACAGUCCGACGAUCAUAGAGGCAGCACCCGAGUCCCAGAUGAUGCCAGCAAGCGUCUUAACUGGGAACGUUAUCACCGAAACAAAGUUUUUUGACGACGAUCUUCUUGUAAGCACAUCCAGAGUGAGACUUUUCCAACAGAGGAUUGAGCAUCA	0.347 ratio
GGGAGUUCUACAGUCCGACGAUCGAUUUUAAUUGGCAGGGGAUAAUGGUAGCUUUCAAAUCAUUGGAAGGGGAAAAGGAUGUCUCCGGAUUAUUUUCUUUCUUGUAGUAGUUGAGACAGAGCUCUUAUUUACUGUAAUGCUAACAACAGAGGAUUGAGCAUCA	0.368 ratio
